Results pooled from the literature.
Parts stem from different laboratories: compare values within a part only.
Sequence of UniProt Q9NSY1 (whole entry, looked up): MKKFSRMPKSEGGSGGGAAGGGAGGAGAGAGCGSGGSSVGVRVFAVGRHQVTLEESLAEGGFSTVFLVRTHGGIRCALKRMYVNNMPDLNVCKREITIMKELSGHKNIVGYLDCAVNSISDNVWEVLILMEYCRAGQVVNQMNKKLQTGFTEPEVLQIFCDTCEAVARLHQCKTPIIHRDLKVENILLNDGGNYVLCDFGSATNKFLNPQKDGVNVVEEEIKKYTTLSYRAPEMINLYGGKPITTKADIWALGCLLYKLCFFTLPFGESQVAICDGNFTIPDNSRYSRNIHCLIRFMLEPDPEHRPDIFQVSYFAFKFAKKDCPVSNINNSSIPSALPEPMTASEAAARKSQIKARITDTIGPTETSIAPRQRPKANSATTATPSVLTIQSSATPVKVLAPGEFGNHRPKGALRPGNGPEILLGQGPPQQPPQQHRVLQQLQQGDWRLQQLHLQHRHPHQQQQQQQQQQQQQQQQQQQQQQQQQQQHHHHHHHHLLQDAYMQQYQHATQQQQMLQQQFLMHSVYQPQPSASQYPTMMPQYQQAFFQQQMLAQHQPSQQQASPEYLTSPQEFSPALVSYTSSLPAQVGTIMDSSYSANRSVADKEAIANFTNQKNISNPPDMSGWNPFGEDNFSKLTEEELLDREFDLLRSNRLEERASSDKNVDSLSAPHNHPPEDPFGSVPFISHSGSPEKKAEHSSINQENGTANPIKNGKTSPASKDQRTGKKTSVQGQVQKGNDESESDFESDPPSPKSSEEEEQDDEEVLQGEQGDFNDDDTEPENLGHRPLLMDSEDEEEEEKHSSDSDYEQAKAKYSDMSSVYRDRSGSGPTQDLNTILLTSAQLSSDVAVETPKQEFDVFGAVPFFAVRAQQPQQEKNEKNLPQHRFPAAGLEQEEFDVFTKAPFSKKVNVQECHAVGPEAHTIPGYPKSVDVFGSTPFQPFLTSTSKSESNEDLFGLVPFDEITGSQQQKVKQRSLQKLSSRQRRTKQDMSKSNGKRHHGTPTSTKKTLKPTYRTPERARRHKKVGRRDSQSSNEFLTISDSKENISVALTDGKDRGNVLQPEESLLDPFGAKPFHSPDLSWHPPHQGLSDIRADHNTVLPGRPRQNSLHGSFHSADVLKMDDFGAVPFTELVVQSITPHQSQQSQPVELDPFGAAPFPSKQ
Sequence of UniProt Q86YV6 (whole entry, looked up): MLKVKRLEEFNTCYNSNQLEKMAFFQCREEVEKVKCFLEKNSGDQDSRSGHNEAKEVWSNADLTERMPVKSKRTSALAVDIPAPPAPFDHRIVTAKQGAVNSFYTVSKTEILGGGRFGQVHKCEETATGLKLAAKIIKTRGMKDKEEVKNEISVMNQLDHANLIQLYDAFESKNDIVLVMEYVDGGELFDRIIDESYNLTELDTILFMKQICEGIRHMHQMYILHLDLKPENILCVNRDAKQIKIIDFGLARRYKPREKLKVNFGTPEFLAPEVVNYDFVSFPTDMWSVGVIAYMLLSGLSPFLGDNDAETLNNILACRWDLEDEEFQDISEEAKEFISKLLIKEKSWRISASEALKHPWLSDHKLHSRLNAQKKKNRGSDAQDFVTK
Sequence of UniProt P37023 (whole entry, looked up): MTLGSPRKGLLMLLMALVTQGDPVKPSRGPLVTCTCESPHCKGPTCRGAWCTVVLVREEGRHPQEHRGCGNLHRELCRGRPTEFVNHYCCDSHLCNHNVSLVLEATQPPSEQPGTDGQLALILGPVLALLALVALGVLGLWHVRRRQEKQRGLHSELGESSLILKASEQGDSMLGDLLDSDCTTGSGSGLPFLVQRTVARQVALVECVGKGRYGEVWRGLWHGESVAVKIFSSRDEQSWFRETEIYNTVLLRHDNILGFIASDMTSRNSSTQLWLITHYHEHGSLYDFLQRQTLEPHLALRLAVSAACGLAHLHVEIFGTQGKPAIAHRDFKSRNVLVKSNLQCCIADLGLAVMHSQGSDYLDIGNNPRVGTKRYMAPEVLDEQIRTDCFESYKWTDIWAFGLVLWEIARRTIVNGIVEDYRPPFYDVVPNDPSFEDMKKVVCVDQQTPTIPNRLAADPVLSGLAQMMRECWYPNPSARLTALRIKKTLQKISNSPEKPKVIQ
Sequence of UniProt O00238 (whole entry, looked up): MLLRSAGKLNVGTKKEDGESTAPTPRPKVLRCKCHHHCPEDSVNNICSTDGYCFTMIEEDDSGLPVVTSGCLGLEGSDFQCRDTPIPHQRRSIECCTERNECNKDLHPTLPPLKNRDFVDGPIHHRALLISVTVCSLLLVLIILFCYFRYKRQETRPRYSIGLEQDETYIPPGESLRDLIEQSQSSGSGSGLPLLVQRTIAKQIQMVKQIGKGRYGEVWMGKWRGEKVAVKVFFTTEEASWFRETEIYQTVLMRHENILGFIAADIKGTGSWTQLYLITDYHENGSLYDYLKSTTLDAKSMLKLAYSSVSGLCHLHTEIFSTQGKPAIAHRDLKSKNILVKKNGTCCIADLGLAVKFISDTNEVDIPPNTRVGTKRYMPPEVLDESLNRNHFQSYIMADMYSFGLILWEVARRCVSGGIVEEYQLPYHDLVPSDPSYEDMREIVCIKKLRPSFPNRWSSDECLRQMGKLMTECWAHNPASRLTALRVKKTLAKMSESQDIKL
Sequence of UniProt P42336 (whole entry, unmodified, looked up): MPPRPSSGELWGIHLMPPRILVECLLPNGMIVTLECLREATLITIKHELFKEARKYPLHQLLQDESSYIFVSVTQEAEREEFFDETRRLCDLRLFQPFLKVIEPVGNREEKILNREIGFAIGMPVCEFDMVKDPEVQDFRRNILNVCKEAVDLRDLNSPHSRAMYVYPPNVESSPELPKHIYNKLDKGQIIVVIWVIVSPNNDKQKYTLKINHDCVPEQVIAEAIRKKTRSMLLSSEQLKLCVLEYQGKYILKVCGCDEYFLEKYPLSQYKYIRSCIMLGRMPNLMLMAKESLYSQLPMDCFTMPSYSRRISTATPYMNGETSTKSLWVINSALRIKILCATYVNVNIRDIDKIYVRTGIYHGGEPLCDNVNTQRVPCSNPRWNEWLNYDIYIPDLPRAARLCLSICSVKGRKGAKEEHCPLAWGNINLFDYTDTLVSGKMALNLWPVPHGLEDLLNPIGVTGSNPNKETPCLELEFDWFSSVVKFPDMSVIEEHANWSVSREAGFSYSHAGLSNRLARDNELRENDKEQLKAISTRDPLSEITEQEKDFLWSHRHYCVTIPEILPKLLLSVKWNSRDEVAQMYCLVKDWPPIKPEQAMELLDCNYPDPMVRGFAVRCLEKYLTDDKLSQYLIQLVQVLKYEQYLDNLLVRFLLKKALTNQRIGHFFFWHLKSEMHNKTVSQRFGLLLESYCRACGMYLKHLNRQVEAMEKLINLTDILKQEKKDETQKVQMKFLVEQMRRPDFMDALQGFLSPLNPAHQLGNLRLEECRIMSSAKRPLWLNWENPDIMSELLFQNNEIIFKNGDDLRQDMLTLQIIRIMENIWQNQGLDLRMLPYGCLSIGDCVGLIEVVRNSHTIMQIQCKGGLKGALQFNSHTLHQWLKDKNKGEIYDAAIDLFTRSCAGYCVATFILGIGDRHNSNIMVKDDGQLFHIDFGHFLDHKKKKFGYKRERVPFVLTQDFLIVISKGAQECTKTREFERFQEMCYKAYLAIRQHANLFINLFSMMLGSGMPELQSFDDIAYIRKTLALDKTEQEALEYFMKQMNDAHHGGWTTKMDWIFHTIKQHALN
Sequence of UniProt P36894 (whole entry, looked up): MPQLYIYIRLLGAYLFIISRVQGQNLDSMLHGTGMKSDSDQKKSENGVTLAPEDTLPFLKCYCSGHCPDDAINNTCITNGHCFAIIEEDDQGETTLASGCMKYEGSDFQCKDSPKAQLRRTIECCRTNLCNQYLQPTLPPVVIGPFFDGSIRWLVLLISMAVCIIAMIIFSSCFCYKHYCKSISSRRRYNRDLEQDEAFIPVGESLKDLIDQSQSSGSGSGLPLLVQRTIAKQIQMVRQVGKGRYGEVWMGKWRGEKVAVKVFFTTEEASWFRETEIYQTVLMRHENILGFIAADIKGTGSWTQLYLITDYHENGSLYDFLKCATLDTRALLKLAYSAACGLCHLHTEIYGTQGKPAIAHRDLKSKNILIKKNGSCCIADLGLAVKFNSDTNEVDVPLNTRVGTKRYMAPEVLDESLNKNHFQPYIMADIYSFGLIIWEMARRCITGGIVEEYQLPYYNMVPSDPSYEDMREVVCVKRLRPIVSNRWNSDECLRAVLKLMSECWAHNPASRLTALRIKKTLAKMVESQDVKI
Sequence of UniProt P48730 (whole entry, looked up): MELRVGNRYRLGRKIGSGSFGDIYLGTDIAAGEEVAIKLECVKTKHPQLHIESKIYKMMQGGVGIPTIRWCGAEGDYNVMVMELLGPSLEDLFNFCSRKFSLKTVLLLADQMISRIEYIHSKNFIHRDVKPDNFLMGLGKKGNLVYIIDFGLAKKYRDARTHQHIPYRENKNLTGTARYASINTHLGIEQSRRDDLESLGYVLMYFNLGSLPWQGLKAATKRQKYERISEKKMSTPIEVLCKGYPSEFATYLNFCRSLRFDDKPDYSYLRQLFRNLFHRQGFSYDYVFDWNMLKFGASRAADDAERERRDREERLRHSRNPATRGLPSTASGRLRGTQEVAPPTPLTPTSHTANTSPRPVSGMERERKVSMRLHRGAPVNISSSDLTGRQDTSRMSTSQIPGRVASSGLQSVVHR

Sample 1 — read-out: enzyme activity; action: inhibitor; concentration: 0.5 µM; baseline: control
Target: Dual specificity tyrosine-phosphorylation-regulated kinase 2 (DYRK2, Homo sapiens, UniProt Q92630)
Target sequence (Q92630 1-601): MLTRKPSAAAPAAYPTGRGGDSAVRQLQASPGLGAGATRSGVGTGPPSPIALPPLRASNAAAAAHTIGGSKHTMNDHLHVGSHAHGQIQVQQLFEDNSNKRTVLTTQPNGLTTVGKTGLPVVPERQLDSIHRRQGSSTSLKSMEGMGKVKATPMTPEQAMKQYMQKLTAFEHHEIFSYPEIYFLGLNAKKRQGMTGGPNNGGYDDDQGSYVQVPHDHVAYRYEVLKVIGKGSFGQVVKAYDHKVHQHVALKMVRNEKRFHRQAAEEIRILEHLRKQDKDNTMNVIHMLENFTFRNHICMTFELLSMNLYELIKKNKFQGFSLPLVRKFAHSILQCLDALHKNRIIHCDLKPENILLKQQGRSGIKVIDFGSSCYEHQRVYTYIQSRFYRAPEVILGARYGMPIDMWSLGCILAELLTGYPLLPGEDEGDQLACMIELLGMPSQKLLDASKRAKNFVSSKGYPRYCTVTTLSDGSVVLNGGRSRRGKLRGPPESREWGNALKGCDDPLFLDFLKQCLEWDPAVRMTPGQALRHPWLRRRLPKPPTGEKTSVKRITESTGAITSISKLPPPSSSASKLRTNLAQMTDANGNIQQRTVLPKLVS
Structure (SMILES) | remaining activity [%]
COc1ccc(-c2cnc3c(-c4ccsc4)cnn3c2)cc1 | 71.1
COc1cc2ncc(-c3ccccc3)nc2cc1OC | 95.9
CC(C)[C@H](CO)Nc1nc(Nc2cccc(Cl)c2)c2ncn(C(C)C)c2n1 | 98.4
O=C(Nc1ccc(Cl)cc1)c1ccccc1NCc1ccncc1 | 96
CC(=O)O/N=C1/C(c2c(O)[nH]c3cc(Br)ccc23)=Nc2ccccc21 | 94.4
COc1cc2ncnc(Nc3ccc(OCc4ccccc4)cc3)c2cc1OC | 111
CCOc1cc2ncnc(Nc3cccc(Br)c3)c2cc1OCC | 88.8
Cc1ccc(NC(=O)c2ccc(CN3CCN(C)CC3)cc2)cc1Nc1nccc(-c2cccnc2)n1 | 99.2
Cn1cnc2cc3c(Nc4cccc(Br)c4)ncnc3cc21 | 95.5
Cn1cc(/C=C2\C(=O)Nc3ccc(S(N)(=O)=O)cc32)c2ccccc21 | 85.5
O=C1NC(=O)/C(=C/c2ccc3nccnc3c2)S1 | 39.8
CCN1/C(=C/C(C)=O)Sc2ccc(OC)cc21 | 19.5
Nc1[nH]nc2nnc(-c3c(-c4ccccc4)nn4ccccc34)cc12 | 103
CC(C)c1nn(-c2c(Cl)cccc2Cl)c2nc(Cc3ccc(OCCO)cc3)[nH]c(=O)c12 | 100
O=c1cc(N2CCOCC2)oc2c1ccc1ccccc12 | 88.9
COc1cc2ncnc(N3CCN(C(=O)Nc4ccc(Oc5ccccc5)cc4)CC3)c2cc1OC | 95.4
CN(C)CCCn1cc(C2=C(c3c[nH]c4ccccc34)C(=O)NC2=O)c2ccccc21 | 111
CCC(=O)Nc1ccc2ncnc(Nc3cccc(Br)c3)c2c1 | 90.6
Cc1nc(Nc2ncc(C(=O)Nc3c(C)cccc3Cl)s2)cc(N2CCN(CCO)CC2)n1 | 113

Sample 2 — read-out: enzyme activity; action: inhibitor; concentration: 1 µM
Structure (SMILES): CC#CC(=O)N1CCC[C@H]1c1nc(-c2ccc(C(=O)Nc3ccccn3)cc2)c2c(N)nccn12
target | inhibition
EPHA2 (Homo sapiens, UniProt P29317) | 7%
ACVRL1 (Homo sapiens, UniProt P37023) | 2%
CDK13 (Homo sapiens, UniProt Q14004) | 0%
PAK3 (Homo sapiens, UniProt O75914) | 6%
MAP3K10 (Homo sapiens, UniProt Q02779) | 33%
MINK1 (Homo sapiens, UniProt Q8N4C8) | 9%
WNK1 (Homo sapiens, UniProt Q9H4A3) | 0%
BMPR1A (Homo sapiens, UniProt P36894) | 0%
MARK2 (Homo sapiens, UniProt Q7KZI7) | 0%
DMPK (Homo sapiens, UniProt Q09013) | 3%
MAP3K15 (Homo sapiens, UniProt Q6ZN16) | 0%
LIM domain kinase 2 (LIMK2, Homo sapiens, UniProt P53671) | 0%

Sample 3 — read-out: cell-free assay; technique: competition with immobilised ligand; concentration: 1 µM
SMILES: C[C@H](c1ccc(F)cc1)N(Cc1cccc(C(=O)O)c1)C(=O)c1cnc2ccccc2c1
target | remaining binding [%]
MARK4 (Homo sapiens, UniProt Q96L34) | 100
MKNK2 (Homo sapiens, UniProt Q9HBH9) | 74
CDK17 (Homo sapiens, UniProt Q00537) | 84
BMP2K (Homo sapiens, UniProt Q9NSY1) | 96
BMPR1B (Homo sapiens, UniProt O00238) | 95
HCK (Homo sapiens, UniProt P08631) | 88
MAP3K6 (Homo sapiens, UniProt O95382) | 84
MYLK4 (Homo sapiens, UniProt Q86YV6) | 99
Ribosomal protein S6 kinase alpha-4, N-terminal kinase domain (RPS6KA4, Homo sapiens, UniProt O75676) | 85
SBK1 (Homo sapiens, UniProt Q52WX2) | 92
Ribosomal protein S6 kinase alpha-2, N-terminal kinase domain (RPS6KA2, Homo sapiens, UniProt Q15349) | 100
MAPK11 (Homo sapiens, UniProt Q15759) | 100
EGFR (Homo sapiens, UniProt P00533, del746-750) | 100
CSNK1D (Homo sapiens, UniProt P48730) | 92
PLK1 (Homo sapiens, UniProt P53350) | 79
FGFR1 (Homo sapiens, UniProt P11362) | 100
PIK3CA (Homo sapiens, UniProt P42336, E542K) | 49
MYLK2 (Homo sapiens, UniProt Q9H1R3) | 100
NEK3 (Homo sapiens, UniProt P51956) | 87
DYRK1B (Homo sapiens, UniProt Q9Y463) | 100

Sample 4 — read-out: enzyme activity; action: inhibitor; concentration: 10 µM
Target: Calcium/calmodulin-dependent protein kinase type II subunit alpha (CAMK2A, Homo sapiens, UniProt Q9UQM7)
Sequence of UniProt Q9UQM7 (whole entry, looked up): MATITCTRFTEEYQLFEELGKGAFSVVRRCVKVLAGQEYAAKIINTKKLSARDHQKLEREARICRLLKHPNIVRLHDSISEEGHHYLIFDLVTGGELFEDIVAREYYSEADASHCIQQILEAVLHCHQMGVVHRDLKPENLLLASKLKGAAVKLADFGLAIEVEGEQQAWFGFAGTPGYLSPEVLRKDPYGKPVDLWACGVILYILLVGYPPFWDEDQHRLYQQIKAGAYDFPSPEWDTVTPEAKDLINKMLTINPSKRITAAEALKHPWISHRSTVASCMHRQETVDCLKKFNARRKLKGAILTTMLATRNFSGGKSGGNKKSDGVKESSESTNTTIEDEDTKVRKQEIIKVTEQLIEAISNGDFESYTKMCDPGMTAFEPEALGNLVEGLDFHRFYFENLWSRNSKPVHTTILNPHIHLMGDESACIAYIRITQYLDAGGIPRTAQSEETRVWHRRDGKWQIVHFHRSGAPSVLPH
Compound | inhibition [%]
COc1cc(CCC(=O)O)cc(OC)c1OC | -13
C=C[C@H]1[C@H](O[C@@H]2O[C@H](CO)[C@@H](O)[C@H](O)[C@H]2O)OC=C(C(=O)OC)[C@H]1CCOC(=O)c1cc(O)c(O)c(O)c1 | 12
CCCCC(CC)COC(=O)CC(C(=O)OCC(CC)CCCC)S(=O)(=O)O (stereo not shown) | -14
C[C@@H](O)[C@H](N)C(=O)O (racemic) | 1

Excerpt of the above (sample 3):
target | remaining binding [%]
MARK4 (Homo sapiens, UniProt Q96L34) | 100
MKNK2 (Homo sapiens, UniProt Q9HBH9) | 74
MAPK11 (Homo sapiens, UniProt Q15759) | 100
